Measured values from different studies.
Numbered parts are unrelated; each lists some results of a single study.

Sample 1 — method: RNA Bind-n-Seq; form: RNA; sample: in vitro; tested at: 365 nM; baseline: no-protein control; reading: higher = stronger binding; quantity: RBNS enrichment (R)
Target: RNA binding protein fox-1 homolog 2, RRM domain, GST-SBP tag (RBFOX2, Homo sapiens, UniProt O43251-10, residues 100-194)
Notes: natural RNA segment, single round, ends assumed
All sequences stand within: GGGAGUUCUACAGUCCGACGAUC … UGGAAUUCUCGGGUGCCAA
Target sequence (chain): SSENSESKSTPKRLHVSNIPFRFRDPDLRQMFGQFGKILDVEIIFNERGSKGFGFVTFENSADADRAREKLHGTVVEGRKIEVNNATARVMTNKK
GGAGGGGAUCCACACAGCUGCAACGUGAGGACAGAAUCAGUGCUGUGAAUGACAGCCUGCCACUCCCUGCCACAGGACUCCCUGUGAGCUGUACAGAGGACCAUGGAGCC: 0.547
AAGUAUUGUACCUUCAGCGUGCAGUAUCUGUGAACUGAUUUCUCCAAGUGUGAGCUUUCUGAGCAAGGGGAUUUUUUUGCUUCAGAGAAGUAAGUGUCUGUCCGUUUUCA: 0.426
AAGGUUCUCAUUUCUCAGGUGGUGGGACUAGACAGAGGGAGUGGCAAGCUCAGGGAAGGAUCAUUUCUGGUGAUAAUUCCAUUCACUUUGCACUUUGAUGGGCAUUAAAA: 0.457
CAACACUGUCGCACCCUUGACCAGCACUCCUCUGUGCUGACUUCAGGCCCUGUGUGACAACAGUAAGAGCUGGGUUUUGUUAUUCUCUAGAAUGGCUCCAGCUGUGGGUG: 0.207
UUGCUGAGGAUAAGGGCAUACACGCUGCUCCUCGCUUUCUUGUUGCCCGACUUCGUACUAAGCAGCUCAGGAGCAGUCACUCAGACCCAAAUGUCUUGACUGUGUUGUUU: 0.464
CAUGUAUUUGCUACAAAGUAUUGUACUUGUCUCAAUGGGAAUGGUGUAAAAAACAAAAGGCCUUAUGUGAUCUGUAUCAUAGUUAAUAAAUGAAUCUUGUAAAAAACCAA: 0.356
UCCUGACUGUUUAGUAAGAGCAUGCUUACACCCUACUGUGAAAAGGGGAGGGGAUGUGGUAAGCGGAAACAGAAGACAGGCAGCAGAGGCAUUAAAAAUGCAUACCAUGC: 0.957
UGGAUUUGGGACCUACAAUACUCCUCAGGUUGAGAUAUUCUUGAAGUUUUAAAAUAGCUUUAGUUUUUAAAGUAAACUGGAUUUGUGGACCUUAAAGUUACUGAGUUUAA: 0.544
UUUUAACUGGUUUUAUUUUAAUUUUUAUUAUAUUUUCAGUUUUUCCAUAAAGGAACCACUUCCAACUUGUACCUAGUCUCCUUGCUUACUGUCCCCCUUUCUCCAGAAAG: 0.497
AUUAGAAGCAAUUUGGAGUAAGUGUGUUUUGAUUUAGGCAGGGUAGCUUGGGAUACCUUUUUAAAAACACCAGAUAUUAAAAUGUCUGGCAAGGUUAGAAUCAGACUAGA: 0.804
GUGAUUCCCAUUGGUGUAGGAAAUGAGACCCUCUCUGAAGCUGAGGAGAGCACGUUGAUCUGAACUUUAAAUCAAUCAGUGCUGCUGGCACAAUGAAAGGUGGAACUGCA: 5.25
AGAAAUUUCUAGACACAACAGCUUAAAAUCACCCAAAUUUCAGUUCUUUACCUACUGCACUAACAAUGGCAAGGGGGGUAUUCUUUAUAUGUUGCCUUGUUUAACUACAG: 0.625

Sample 2 — method: aptamer microarray, sandwich; form: DNA with 2'F-ANA; sample: in vitro; tested at: 200 nM; added: Cy3 exosite-II aptamer, 400 nM; reading: higher = stronger binding; quantity: mean fluorescence intensity; strand: GGTTGGTGTGGTTGG
Target: Prothrombin, mature alpha-thrombin (F2, Homo sapiens, UniProt P00734)
Notes: whole 15-mer aptamer, many near background
2'F-ANA at 1 3 7 14: 97.8 a.u.
2'F-ANA at 3 10 15: 589 a.u.
2'F-ANA at 1 5 7 9 10 11 12 15: 46.8 a.u.
2'F-ANA at 4 5 6 10 12 13: 54.7 a.u.
2'F-ANA at 1 2 5 6 9 10 11: 57.5 a.u.
2'F-ANA at 4 5 6 10 11 14 15: 52.5 a.u.
2'F-ANA at 2 3 7 8 12 13 15: 1090 a.u.
2'F-ANA at 2 3 6 7 8 10 11 12 13: 382 a.u.
2'F-ANA at 3 4 7 9 13 15: 498 a.u.
2'F-ANA at 2 5 7 8 11 12 14: 47 a.u.
2'F-ANA at 1 2 3 5 6 7 10 12 13: 50.8 a.u.
2'F-ANA at 2 4 7 9 10: 94.3 a.u.
2'F-ANA at 1 8 9 12 13 15: 358 a.u.
2'F-ANA at 1 2 3 5 7 11 14 15: 52 a.u.
2'F-ANA at 1 3 4 5 10 11 12 13 14: 42.8 a.u.
2'F-ANA at 1 5 6 7 8 9 12 14: 50.2 a.u.
2'F-ANA at 2 4 9 10 12 13: 99.2 a.u.
2'F-ANA at 2 3 4 5 6 9 10 11 12 15: 60.6 a.u.
2'F-ANA at 3 7 9 10 12 13 14: 497 a.u.
2'F-ANA at 2 3 4 6 8 10 12 13 14 15: 147 a.u.
2'F-ANA at 1 2 7 10 11 13: 51.1 a.u.
2'F-ANA at 3 4 5 8 9 10: 54.1 a.u.

Sample 3 — method: competition protein-binding microarray; form: double-stranded DNA, one strand shown; sample: in vitro; tested at: 2 µM; added: Pho4 competitor, 0.05 µM; reading: higher = stronger binding; quantity: fluorescence intensity; all sequences stand within: … GTCTTGATTCGCTTGACGCTGCTG
Target: Centromere-binding protein 1, full length, His-tagged (CBF1, Saccharomyces cerevisiae, UniProt P17106, residues 1-351)
Chain of UniProt P17106 (whole entry, looked up): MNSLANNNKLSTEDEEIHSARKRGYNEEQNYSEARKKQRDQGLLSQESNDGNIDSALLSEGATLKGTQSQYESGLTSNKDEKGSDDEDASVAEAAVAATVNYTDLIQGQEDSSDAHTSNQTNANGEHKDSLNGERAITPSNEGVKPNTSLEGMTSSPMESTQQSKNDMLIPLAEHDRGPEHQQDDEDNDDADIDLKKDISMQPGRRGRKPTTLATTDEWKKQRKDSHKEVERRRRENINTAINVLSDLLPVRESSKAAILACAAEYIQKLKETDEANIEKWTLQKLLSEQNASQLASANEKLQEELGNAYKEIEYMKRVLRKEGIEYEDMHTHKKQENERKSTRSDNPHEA
Notes: whole 60-bp probe, lowest competitor level
TTTTATCTTTTTGGTTCTGTGATGAAGCTACCCGCG: 80.3 a.u.
CATACCCAACCTTCTCACGTGTTTTAAGATATTTGT: 1510 a.u.
CCCCGCTCTTGTTTTCGCGTGCCGATTCTACAATAA: 102 a.u.
AAAGCTGCGGTAAGGCAGGTGATGCTGATTATTAGC: 186 a.u.
CTTCTGTAAATTTGTGCAGTGGGTGGACGCGCCCCG: 81.3 a.u.
AGCAACGACATTCCACACGTGGTGCGGTTCAGCGCG: 683 a.u.
CGTCCTAGTGATTTTCACGTGAAATCCATGAGGAAG: 665 a.u.
CATACCCAACCTTGTCGAGTGGGTGAAGATATTTGT: 63.3 a.u.
CACAAGTAGATTTGCCACGCACAACTTTAATACATG: 87.5 a.u.
CGTCTAAAAGTTCGGCACGTGACAAACCTGGTATTT: 6970 a.u.
CATACCCAACCTTGTCACCTAACTTAAGATATTTGT: 73.8 a.u.
AAAGCAAGAACCCTTCACATGTCAAACCTGAACGCA: 112 a.u.
GCTGAAGTTATTGACTCCGTGGGTAATAAGGTCTCA: 70.1 a.u.
GTTTCTGATGACCATCACGTGAAGAATTTGATGTCC: 2750 a.u.
GTCGAAAGATGACCTCACGTTGCAGCCACCGACACA: 93.9 a.u.
AGCAGTATGAACATTCGCGTGTCGGTTATAGTTGGT: 75.7 a.u.

Sample 4 — method: RNA Bind-n-Seq; form: RNA; sample: in vitro; tested at: 200 nM; notes: whole 134-nt RNA, ends assumed; added: 150 mM LiCl; baseline: input library; reading: higher = stronger binding; quantity: log2 enrichment; all molecules: 7-deaza-guanosine replaces G
Target: Fragile X messenger ribonucleoprotein 1, C-terminal low-complexity region (Fmr1, Mus musculus, UniProt P35922)
All sequences stand within: GGGAGUUCUACAGUCCGACGAUC … UGGAAUUCUCGGGUGUCAAGG
CCUCAAGUCCUGUGCUACACAUCGUAUGUACCGAAUCGGGAGGGAGGGAGGGGAAAGUAUUAUGUUACGCCGUUCGGAUCUGCACUUCCA: -1.35
GCAGGAAGUAAAAACAAAUGGAAAUGCAUCGGAUAGUGGCAGGGGUGGGGGUUGCUAAGGAAAGGGUGGGAUGGGAGUGGGUAAAGAGUU: 1.8
CCUGUGCUACACAUCGUAUGUACCGAAUCGGUUUUUUUGGUUUUUUUGGGGUUUUUUUGGGAAAGUAUUAUGUUACGCCGUUCGGAUCUG: -1.03
CAAGUCCUGUGCUACACAUCGUAUGUACCGAAUCGGUUUUUUUGGAGGUUUUUGGAAAGUAUUAUGUUACGCCGUUCGGAUCUGCACUUC: -1.23
UGGCCCUGGUGGCAUGCGGGGAGGACGAGGUGGCCUCAUGGAUCGUGGUGGUCCCGGUGGAAUGUUCAGAGGUGGCCGUGGUGGAGACAG: -0.461
UCAUUAGAAGAUCUAAUUGAGAGAGAGGUAACUGGUAUCCUUUUCCUACCAUAAAAACUGAAAGCAGUAUUUAUUGUGAAAUUCUAAUAC: -0.363
UGUGCUACACAUCGUAUGUACCGAAUCGGGGUUUUUGGGGAAAAAAAGGGGUUUUUUUGGGGAAAGUAUUAUGUUACGCCGUUCGGAUCU: -0.982
CCUGUGCUACACAUCGUAUGUACCGAAUCGGGUUUUUUUGGGUUUUUGGGUUUUUUUGGGAAAGUAUUAUGUUACGCCGUUCGGAUCUGC: -1.16
UUAUUGAACUGACAAGGUCCUCCCUGUGUUGUAGCAAGGACCAGACUGGCUUGAGCUCUCUGAGAUGACCGAGCAGCCAGACUAUGACCU: -0.0361
CCUCAAGUCCUGUGCUACACAUCGUAUGUACCGAAUCGGAAGGGAAGGAAGGGAAAGUAUUAUGUUACGCCGUUCGGAUCUGCACUUCCA: -1.33
UGGCCCUGGUGGCAUGCGGCGAGGAAGAGGUGGCCUCAUGGAUCGUGGUGGUCCCGGUGGAAUGUUCAGAGGUGGCCGUGGUGGAGACAG: -0.264

Repeated from above (sample 2):
2'F-ANA at 3 4 5 8 9 10: 54.1 a.u.
2'F-ANA at 4 5 6 10 12 13: 54.7 a.u.
2'F-ANA at 1 2 5 6 9 10 11: 57.5 a.u.
